Measurements pooled from the literature.
Each numbered part is a random draw from the data of one study; scales do not carry over between parts. Positions count from the first letter of the parent shown.

Sample 1 — target: CREBRF, bZIP domain (human); technique: DHFR protein complementation; medium: yeast; baseline: wild-type JUN-FOS pair; direction: higher = stronger binding; quantity: binding fitness
Notes: single substitutions, most at no-binding floor
Parent: JUN, bZIP domain (human); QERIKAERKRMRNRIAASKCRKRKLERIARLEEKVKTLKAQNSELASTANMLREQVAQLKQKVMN; partner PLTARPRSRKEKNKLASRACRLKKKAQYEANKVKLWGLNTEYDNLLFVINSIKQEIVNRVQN
A29C: -1.4 natural log
T48Y: -1.54 natural log
A40W: -1.47 natural log
A29W: -1.56 natural log
E33T: -1.46 natural log
E33F: -1.23 natural log
A49R: -1.36 natural log
L59R: -1.42 natural log
N42M: -1.46 natural log
A57Q: -1.36 natural log
K34Y: -0.973 natural log
R30G: -1.32 natural log
S47V: -1.39 natural log
Q41R: -1.47 natural log
Q41F: -1.52 natural log
T48V: -1.45 natural log
L31P: -1.53 natural log
M51Q: -1.4 natural log
S43N: -1.59 natural log
K34F: -0.974 natural log
E54R: -1.57 natural log
L59V: -1.46 natural log
L52V: -1.32 natural log
A57S: -1.56 natural log
L45V: -1.54 natural log

Sample 2 — technique: Sort-seq; item: YFP reporter; medium: E. coli; notes: PhoQ-PhoP variant library; added: 10 µM Mg2+; baseline: high Mg2+ state; direction: higher = stronger signaling; quantity: fold induction
Substance: PhoQ, residues 284 288 289 292 302 303 SMYGEC
PhoP, residues 12 14 15 18 19 VHTVL (Escherichia coli, UniProt P23836): 1.51
PhoP, residues 12 14 15 18 19 ICWRQ (Escherichia coli, UniProt P23836): 15.2
PhoP, residues 12 14 15 18 19 TQCLL (Escherichia coli, UniProt P23836): 11.4

Sample 3 — target: CCNB3, cyclin fold, Cln2 fusion (human); technique: yeast growth competition, sequencing; medium: yeast; notes: strong parent motif; baseline: not given; direction: higher = stronger binding; quantity: normalised enrichment score
Parent: E2F1 docking peptide (human); PPVKRRLDFETDH; partner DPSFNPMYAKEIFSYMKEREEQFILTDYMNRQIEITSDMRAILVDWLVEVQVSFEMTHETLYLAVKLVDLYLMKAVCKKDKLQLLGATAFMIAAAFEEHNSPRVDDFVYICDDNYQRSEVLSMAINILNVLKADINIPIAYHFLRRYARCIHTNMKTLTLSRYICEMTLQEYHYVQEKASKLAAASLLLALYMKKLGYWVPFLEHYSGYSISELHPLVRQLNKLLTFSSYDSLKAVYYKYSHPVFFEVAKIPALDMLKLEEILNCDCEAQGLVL
PPVKRRLDFETLH [D12L]: 3
PPVKRRLDFCTDH [E10C]: 2.2
PPVKRRLDEETDH [F9E]: 0.328
PPVIRRLDFETDH [K4I]: 1.12
PPVKRYLDFETDH [R6Y]: 0.409
PPAKRRLDFETDH [V3A]: 1.58
PPVKRVLDFETDH [R6V]: 3.67
PPVKRRLQFETDH [D8Q]: 2.34
PPVKRRLDFESDH [T11S]: 2.81
PPVKRHLDFETDH [R6H]: 0.461
PPVVRRLDFETDH [K4V]: 2.15
PPVKRRDDFETDH [L7D]: -0.0825
PPVKRTLDFETDH [R6T]: 3.18
PPVKHRLDFETDH [R5H]: -0.0159
PPVKQRLDFETDH [R5Q]: -0.00208
PPVKRRLDFETIH [D12I]: 3.24
PPRKRRLDFETDH [V3R]: 0.292
PPVKRRLDTETDH [F9T]: -0.0966

Sample 4 — technique: DHFR PCA, deep sequencing; medium: yeast; added: (+)-ABA 0.11 µM; baseline: wild-type fitted maximum; direction: higher = stronger binding; quantity: relative binding score
Target: ABI1, truncated, D143A, DHFR fusion (Arabidopsis thaliana)
Notes: methotrexate growth selection, single substitutions
Parent: PYL1, truncated, DHFR fusion (Arabidopsis thaliana); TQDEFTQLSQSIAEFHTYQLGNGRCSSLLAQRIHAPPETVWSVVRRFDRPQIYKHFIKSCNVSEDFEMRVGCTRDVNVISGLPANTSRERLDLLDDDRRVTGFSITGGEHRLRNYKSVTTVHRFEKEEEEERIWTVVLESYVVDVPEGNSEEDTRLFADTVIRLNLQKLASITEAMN; partner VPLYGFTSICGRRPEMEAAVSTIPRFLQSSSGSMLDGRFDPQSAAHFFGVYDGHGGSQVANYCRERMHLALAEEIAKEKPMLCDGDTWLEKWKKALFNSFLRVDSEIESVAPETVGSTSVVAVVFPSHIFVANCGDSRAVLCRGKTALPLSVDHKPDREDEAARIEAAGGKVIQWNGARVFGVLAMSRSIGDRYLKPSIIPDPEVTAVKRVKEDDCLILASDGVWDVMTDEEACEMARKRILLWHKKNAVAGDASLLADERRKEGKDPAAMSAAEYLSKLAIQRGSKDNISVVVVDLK
W134S: 43.7%
V43N: -5.6%
F47S: -2.37%
V136Y: 3.18%
R113K: 50.5%
R90T: 3.55%
I162G: 5.52%
L82Y: 49.2%
R123T: 29.5%
V40A: -0.882%
I33R: 1.22%
W134T: 44.6%
I162F: -19.2%
V142C: 34.6%
C25P: -3.58%
W41H: -9.14%

Sample 5 — technique: protein-binding microarray; molecule type: double-stranded DNA, one strand shown; medium: in vitro; concentration: 940 nM top; notes: 60-bp whole probe; added: salmon DNA 0.4 mg/ml; baseline: random background probes; direction: higher = stronger binding; quantity: fitted relative affinity; all sequences stand within: GCCTAGCAC … GTCTTGATTCGCTTGACGCTGCTG
Target: Interferon regulatory factor 5, full length, phosphomimetic (IRF5, Homo sapiens, UniProt Q13568-2, residues 1-514, S451D/S453D/S456D/S462D)
TTAGGCCTCCTTCTCCTTTAGTGCTAG: 0.238 z-score
TTAGATATAGGGTTTCGATTAGTGCTA: 3.69 z-score
TTAGATTTCAGTTCCGACTAGTGCTAG: 1.23 z-score
TTAGGGCTCGGTATCGGTTAGTGCTAG: 4.09 z-score
GACGGTATCGACTCTCGGGACGTGCTA: 4.7 z-score
GACGGTCTCCTACTGCCGACGTGCTAG: 0.145 z-score
GAGGGTTTCGACACTGGGGACGTGCTA: 5.12 z-score
GACGGACTGCTTTTACTGACGTGCTAG: -0.239 z-score
CTCTATTGCTTTCTCTTTCAGTGCTAG: 2 z-score
TCAAACTTGTATTTGTCACTGTGCTAG: -0.217 z-score
TTAGGTCTCGGGTTTCGGTTAGTGCTA: 6.6 z-score
CTAGATTCCAGTTTCGATTAGTGCTAG: 8.93 z-score
CTAGGTTTCGACTTTCGGTTAGTGCTA: 7.7 z-score
TCACTCCTCTAGGTTCTCACTGTGCTA: 0.648 z-score
TTAGGACTGCTTTTTCTTTAGTGCTAG: 0.189 z-score
GACGGTATCCTTATCCTAACGTGCTAG: 0.19 z-score
GACGTTATCGGTATCGGGACGTGCTAG: 1.81 z-score
GACGATTTAAGTCTCGAGACGTGCTAG: 1.09 z-score
GTAGGTATCGGTCTCGGTTAGTGCTAG: 9.51 z-score

Some of these lines once more (sample 5):
TCAAACTTGTATTTGTCACTGTGCTAG: -0.217 z-score
TTAGGTCTCGGGTTTCGGTTAGTGCTA: 6.6 z-score
CTAGATTCCAGTTTCGATTAGTGCTAG: 8.93 z-score
CTAGGTTTCGACTTTCGGTTAGTGCTA: 7.7 z-score
TCACTCCTCTAGGTTCTCACTGTGCTA: 0.648 z-score
TTAGGACTGCTTTTTCTTTAGTGCTAG: 0.189 z-score
GACGGTATCCTTATCCTAACGTGCTAG: 0.19 z-score
GACGTTATCGGTATCGGGACGTGCTAG: 1.81 z-score
GACGATTTAAGTCTCGAGACGTGCTAG: 1.09 z-score
